Results from different studies.
GBA2: Beta-glucosidase (GBA2, Homo sapiens, UniProt Q9HCG7)

Sequences of proteins named here, by UniProt entry; tags and fusion partners are left off. Residues count along the entry.
UniProt Q9HCG7, whole entry: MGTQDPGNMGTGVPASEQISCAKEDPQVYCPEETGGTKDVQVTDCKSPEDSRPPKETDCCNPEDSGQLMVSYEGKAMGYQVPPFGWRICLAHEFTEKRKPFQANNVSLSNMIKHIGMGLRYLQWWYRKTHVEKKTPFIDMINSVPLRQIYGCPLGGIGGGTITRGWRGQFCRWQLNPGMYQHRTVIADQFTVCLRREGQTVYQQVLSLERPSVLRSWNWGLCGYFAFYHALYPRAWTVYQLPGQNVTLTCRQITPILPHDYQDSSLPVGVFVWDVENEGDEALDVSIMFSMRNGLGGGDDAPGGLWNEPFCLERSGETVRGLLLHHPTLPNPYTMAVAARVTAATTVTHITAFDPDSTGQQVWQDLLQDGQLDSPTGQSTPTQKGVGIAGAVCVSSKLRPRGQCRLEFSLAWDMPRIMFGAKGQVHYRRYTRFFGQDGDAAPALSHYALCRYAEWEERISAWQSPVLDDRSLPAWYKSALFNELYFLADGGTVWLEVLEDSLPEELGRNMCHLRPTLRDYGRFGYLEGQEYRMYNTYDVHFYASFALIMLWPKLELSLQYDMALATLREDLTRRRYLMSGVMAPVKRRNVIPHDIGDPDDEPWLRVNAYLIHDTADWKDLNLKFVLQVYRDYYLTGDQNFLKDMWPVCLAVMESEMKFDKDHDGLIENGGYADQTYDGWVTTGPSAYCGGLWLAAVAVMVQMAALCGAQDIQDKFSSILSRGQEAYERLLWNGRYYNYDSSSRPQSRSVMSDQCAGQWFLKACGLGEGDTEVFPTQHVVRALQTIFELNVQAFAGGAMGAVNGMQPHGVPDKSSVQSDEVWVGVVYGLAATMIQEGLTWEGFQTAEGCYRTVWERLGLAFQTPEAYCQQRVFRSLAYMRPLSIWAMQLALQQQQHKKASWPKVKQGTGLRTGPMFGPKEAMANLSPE
UniProt P34969, 1-445 isoform 2: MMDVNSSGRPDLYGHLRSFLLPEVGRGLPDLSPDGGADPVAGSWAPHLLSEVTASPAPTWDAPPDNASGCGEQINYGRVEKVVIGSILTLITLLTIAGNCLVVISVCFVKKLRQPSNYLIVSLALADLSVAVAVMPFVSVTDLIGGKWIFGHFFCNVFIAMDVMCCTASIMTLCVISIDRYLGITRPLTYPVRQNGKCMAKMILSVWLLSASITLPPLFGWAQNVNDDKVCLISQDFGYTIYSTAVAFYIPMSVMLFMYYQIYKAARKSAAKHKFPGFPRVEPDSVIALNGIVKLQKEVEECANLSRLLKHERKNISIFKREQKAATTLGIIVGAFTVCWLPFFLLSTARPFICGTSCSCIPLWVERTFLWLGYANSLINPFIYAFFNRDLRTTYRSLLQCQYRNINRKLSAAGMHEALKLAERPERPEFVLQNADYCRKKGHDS
UniProt P50750, whole entry: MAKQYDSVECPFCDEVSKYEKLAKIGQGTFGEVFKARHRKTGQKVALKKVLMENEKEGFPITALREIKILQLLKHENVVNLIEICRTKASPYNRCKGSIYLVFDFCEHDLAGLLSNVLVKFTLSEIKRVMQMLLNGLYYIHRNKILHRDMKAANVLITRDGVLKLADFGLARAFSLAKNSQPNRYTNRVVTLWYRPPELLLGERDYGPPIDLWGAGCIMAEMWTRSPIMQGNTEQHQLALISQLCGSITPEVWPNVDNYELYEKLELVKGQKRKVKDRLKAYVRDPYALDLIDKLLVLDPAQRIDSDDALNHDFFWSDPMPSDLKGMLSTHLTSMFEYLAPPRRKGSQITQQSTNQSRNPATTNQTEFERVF
UniProt Q01727, whole entry: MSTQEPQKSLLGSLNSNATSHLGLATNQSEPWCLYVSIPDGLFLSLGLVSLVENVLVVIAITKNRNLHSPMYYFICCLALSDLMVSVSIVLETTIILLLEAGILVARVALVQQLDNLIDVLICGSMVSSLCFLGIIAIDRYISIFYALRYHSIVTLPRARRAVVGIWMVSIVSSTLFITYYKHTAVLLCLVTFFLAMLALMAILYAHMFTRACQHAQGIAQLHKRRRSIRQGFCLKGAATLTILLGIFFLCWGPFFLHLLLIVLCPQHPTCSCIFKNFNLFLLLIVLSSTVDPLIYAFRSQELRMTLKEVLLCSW
UniProt P41148, 22-804 limits assumed: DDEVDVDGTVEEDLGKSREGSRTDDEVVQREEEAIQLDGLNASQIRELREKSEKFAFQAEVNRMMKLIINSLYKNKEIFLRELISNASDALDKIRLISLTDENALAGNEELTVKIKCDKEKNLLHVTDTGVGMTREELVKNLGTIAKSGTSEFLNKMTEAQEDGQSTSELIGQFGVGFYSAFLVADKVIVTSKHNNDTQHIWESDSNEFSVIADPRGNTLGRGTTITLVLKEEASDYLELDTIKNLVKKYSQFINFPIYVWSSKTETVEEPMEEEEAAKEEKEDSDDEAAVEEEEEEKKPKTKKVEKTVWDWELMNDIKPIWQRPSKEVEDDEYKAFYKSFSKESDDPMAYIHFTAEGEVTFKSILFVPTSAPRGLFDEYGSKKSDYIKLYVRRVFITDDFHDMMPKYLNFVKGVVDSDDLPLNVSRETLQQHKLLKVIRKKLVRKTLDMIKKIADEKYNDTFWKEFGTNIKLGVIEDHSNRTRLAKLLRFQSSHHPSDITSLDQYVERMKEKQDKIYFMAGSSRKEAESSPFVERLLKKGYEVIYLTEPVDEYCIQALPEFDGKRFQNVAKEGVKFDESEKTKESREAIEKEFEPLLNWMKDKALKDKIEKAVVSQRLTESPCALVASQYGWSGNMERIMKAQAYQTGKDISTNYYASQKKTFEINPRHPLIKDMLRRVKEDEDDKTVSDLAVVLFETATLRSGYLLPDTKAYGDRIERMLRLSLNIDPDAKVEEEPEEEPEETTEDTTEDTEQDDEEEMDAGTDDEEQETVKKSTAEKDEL
UniProt P17655, whole entry: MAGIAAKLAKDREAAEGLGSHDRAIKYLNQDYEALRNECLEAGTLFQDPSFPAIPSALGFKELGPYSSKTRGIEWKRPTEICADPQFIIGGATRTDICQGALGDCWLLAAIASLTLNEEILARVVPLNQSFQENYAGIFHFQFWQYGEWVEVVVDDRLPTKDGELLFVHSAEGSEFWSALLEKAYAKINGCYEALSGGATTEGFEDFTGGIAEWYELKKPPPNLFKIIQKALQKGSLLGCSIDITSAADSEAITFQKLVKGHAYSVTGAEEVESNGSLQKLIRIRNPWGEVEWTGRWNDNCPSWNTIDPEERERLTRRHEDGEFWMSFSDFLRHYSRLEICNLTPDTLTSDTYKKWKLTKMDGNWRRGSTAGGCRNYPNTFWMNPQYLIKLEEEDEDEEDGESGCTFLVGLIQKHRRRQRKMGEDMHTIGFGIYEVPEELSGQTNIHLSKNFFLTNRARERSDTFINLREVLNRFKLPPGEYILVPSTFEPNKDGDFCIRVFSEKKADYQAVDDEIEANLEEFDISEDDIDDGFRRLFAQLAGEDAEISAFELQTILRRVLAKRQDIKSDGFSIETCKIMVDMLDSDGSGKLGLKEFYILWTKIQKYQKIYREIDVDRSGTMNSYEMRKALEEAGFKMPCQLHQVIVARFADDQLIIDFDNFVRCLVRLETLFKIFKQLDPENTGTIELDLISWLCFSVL
UniProt Q9BY41, whole entry: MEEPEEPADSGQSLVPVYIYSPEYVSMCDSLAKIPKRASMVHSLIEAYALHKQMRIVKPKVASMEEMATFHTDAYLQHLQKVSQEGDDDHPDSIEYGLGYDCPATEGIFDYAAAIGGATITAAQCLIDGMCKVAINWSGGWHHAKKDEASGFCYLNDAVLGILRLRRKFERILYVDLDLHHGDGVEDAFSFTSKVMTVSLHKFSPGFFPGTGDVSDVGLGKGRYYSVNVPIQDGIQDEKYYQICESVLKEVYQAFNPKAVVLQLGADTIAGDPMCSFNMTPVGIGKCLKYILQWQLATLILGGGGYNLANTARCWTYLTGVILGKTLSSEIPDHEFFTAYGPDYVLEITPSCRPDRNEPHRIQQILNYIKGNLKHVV
UniProt Q6P5Z2, whole entry: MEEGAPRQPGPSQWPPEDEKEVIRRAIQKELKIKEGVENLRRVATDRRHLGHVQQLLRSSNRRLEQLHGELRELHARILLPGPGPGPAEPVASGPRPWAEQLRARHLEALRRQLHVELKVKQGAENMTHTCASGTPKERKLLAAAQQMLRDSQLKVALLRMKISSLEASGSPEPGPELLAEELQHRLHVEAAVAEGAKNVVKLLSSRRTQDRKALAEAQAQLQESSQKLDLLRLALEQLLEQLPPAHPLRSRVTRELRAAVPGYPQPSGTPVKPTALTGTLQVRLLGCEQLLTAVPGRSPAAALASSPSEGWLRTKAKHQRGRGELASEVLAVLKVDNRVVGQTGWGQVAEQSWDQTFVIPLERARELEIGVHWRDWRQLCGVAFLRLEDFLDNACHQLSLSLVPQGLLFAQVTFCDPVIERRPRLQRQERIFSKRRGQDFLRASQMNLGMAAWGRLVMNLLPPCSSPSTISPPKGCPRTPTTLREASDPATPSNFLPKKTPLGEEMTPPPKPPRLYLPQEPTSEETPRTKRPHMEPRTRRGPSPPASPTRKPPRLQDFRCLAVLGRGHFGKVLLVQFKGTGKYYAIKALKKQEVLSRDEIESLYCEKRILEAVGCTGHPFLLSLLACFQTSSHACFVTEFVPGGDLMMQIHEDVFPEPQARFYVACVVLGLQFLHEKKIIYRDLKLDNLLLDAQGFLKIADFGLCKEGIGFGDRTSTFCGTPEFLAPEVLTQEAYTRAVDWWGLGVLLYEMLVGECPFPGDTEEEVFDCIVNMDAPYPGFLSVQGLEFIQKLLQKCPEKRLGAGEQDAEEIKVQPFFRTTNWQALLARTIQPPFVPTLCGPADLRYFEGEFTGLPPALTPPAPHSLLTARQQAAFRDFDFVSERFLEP
UniProt P42574, 29-175 limits assumed: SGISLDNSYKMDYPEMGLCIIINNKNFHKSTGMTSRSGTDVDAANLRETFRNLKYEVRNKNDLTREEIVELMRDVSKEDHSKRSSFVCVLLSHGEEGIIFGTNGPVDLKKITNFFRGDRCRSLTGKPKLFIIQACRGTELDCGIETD
UniProt P42574, 176-277 limits assumed: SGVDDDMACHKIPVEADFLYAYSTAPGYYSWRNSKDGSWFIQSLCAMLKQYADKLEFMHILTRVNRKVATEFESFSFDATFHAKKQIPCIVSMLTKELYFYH
UniProt Q9Y251, whole entry, looked up: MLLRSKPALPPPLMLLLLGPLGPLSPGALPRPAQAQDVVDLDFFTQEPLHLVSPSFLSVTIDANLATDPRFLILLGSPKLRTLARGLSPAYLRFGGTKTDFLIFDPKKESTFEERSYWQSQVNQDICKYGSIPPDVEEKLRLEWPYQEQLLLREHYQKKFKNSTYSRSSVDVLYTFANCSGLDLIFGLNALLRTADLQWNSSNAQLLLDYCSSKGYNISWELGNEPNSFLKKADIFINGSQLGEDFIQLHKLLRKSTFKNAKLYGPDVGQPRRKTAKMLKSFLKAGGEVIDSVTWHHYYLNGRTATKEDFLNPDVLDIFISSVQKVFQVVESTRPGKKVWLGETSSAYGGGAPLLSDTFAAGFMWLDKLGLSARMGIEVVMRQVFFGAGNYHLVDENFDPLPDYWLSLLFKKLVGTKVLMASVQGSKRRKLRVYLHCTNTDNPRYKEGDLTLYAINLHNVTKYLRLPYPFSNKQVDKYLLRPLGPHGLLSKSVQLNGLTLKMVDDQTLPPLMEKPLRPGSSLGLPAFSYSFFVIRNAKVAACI
UniProt O60563, whole entry partner: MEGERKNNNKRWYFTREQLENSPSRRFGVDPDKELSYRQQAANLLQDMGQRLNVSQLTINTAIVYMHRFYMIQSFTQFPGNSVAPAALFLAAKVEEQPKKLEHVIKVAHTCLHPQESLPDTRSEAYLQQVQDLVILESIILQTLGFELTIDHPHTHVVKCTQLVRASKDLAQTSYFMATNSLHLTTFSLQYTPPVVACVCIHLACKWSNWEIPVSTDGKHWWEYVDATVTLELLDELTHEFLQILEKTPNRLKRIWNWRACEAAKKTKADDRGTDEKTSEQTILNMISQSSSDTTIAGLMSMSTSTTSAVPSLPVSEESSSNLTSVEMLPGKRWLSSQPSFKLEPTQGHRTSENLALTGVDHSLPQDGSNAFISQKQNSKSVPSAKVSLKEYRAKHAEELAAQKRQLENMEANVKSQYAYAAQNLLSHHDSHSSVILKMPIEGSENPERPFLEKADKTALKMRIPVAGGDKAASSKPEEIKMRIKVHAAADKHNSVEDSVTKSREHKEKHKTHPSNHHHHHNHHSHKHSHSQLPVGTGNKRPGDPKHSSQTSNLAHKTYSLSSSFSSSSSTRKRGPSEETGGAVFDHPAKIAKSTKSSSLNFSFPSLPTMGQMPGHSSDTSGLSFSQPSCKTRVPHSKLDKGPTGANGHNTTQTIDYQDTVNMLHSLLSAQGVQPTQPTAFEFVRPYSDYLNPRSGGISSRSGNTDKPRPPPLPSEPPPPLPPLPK

SMILES = NC(N)=NC(=O)N1CCc2c(F)ccc(-c3c(F)cc(F)cc3F)c2C1; target = HTR7 (Homo sapiens, UniProt P34969); test = radioligand binding; how to read = reference: Ki HTR7 over Ki 5-HT5A receptor; selectivity ratio = 2.6 fold
SMILES = CN1CC[C@H](c2c(O)cc(O)c3c(=O)cc(-c4ccccc4F)oc23)[C@H](O)C1; target = Cyclin-dependent kinase 9, with cyclin T1 (CDK9, Homo sapiens, UniProt P50750); test = kinase activity, inhibitor; how to read = reference: CDK9/cyclin T1 over CDK2/cyclin A; selectivity ratio = 127 fold
SMILES = NCCCCNC(=O)[C@H](Cc1ccccc1)NC(=O)N1CCc2ccccc2C1; target = Mc1r (Mus musculus, UniProt Q01727); test = agonist, β-galactosidase reporter; how to read = reference: Mc1r over mouse MC4R; selectivity ratio = 5 fold
SMILES = COC(=O)c1c(O)cc(O)c(Cl)c1CCc1ccccc1Cc1cccc(Cl)c1; target = Endoplasmin (HSP90B1, Canis lupus familiaris, UniProt P41148); test = fluorescence polarization; conditions = together with: FITC-geldanamycin tracer; how to read = reference: Grp94 over Hsp90α; selectivity ratio = 4 fold
SMILES = OCC1C(O)C(O)C(O)CN1CC(F)(F)CCCOCc1ccc(-c2ccccc2)cc1 (stereo not shown); target = GBA2; how to read = reference: GBA1 IC50 over GBA2 IC50; selectivity ratio = 250000
SMILES = CCC(NC(=O)C(CC(C)C)NC(=O)Cc1ccncc1)C(=O)C(=O)NCc1cc(OC)cc(OC)c1 (stereo not shown); target = Calpain-2 catalytic subunit (Homo sapiens, UniProt P17655); test = enzyme activity, inhibitor, Suc-Leu-Tyr-AMC hydrolysis; how to read = reference: Ki calpain-1 over calpain-2; selectivity ratio = 1.5
SMILES = OC[C@@H]1[C@@H](O)[C@H](O)[C@@H](O)CN1CCCCCOCc1ccc(-c2cccnc2)cc1; target = GBA2; how to read = reference: GBA1 IC50 over GBA2 IC50; selectivity ratio = 300
SMILES = O=C(CCCCCCN(Cc1ccc2ccccc2c1)Cc1ccc2ccccc2c1)NO; target = HDAC8 (Homo sapiens, UniProt Q9BY41); how to read = reference: IC50 HDAC8 over HDAC1; selectivity ratio = 4.9
SMILES = COc1cc(Nc2ccnc3ccc(Br)cc23)cc(OC)c1OC; target = PKN3 (Homo sapiens, UniProt Q6P5Z2); test = binding; how to read = reference: GAK Ki over PKN3 IC50; selectivity ratio = 3 fold
SMILES = OC[C@H]1[C@@H](O)[C@H](O)[C@@H](O)CN1CCCCCOCc1ccc(Br)cc1; target = GBA2; how to read = reference: GCS IC50 over GBA2 IC50; selectivity ratio = 84
SMILES = CC(=O)N[C@H](C(=O)N[C@@H](CC(=O)O)C(=O)N[C@H](C(=O)N1CCc2cc(C)ccc2[C@@H]1C(=O)N[C@H](C=O)CC(=O)O)C(C)C)C(C)C; target = Caspase-3 (CASP3, Homo sapiens, UniProt P42574); test = enzyme activity, inhibitor; how to read = reference: Ki CASP3 over Ki caspase-2; selectivity ratio = > 9
SMILES = OC[C@H]1[C@@H](O)[C@H](O)[C@@H](O)CN1CCCCCOCCc1ccsc1; target = GBA2; how to read = reference: GBA1 IC50 over GBA2 IC50; selectivity ratio = 205000
SMILES = O=C([C@H]1O[C@H](O[C@H]2[C@H](O[C@@H]3O[C@H](C(=O)N4CCCC4)[C@@H](O[C@H]4O[C@@H](CNS(=O)(=O)O)[C@@H](OCc5ccc6ccccc6c5)[C@H](OCc5ccc6ccccc6c5)[C@H]4NS(=O)(=O)O)[C@H]3OCc3ccc4ccccc4c3)[C@@H](OCc3ccc4ccccc4c3)[C@H](NS(=O)(=O)O)C[C@@H]2NS(=O)(=O)O)[C@H](NS(=O)(=O)O)[C@@H](OCc2ccc3ccccc3c2)[C@@H]1OCc1ccc2ccccc2c1)N1CCCC1; target = Heparanase (HPSE, Homo sapiens, UniProt Q9Y251); test = TR-FRET; how to read = reference: PF4 IC50 over heparanase IC50; selectivity ratio = > 100 fold

A few entries again:
SMILES = OC[C@@H]1[C@@H](O)[C@H](O)[C@@H](O)CN1CCCCCOCc1ccc(-c2cccnc2)cc1; target = GBA2; how to read = reference: GBA1 IC50 over GBA2 IC50; selectivity ratio = 300
SMILES = CCC(NC(=O)C(CC(C)C)NC(=O)Cc1ccncc1)C(=O)C(=O)NCc1cc(OC)cc(OC)c1 (stereo not shown); target = Calpain-2 catalytic subunit (Homo sapiens, UniProt P17655); test = enzyme activity, inhibitor, Suc-Leu-Tyr-AMC hydrolysis; how to read = reference: Ki calpain-1 over calpain-2; selectivity ratio = 1.5
